Earlier results as cited in several papers.
Protocols differ between the studies behind these lines.
UniProt Q99714, sequence (whole entry, looked up): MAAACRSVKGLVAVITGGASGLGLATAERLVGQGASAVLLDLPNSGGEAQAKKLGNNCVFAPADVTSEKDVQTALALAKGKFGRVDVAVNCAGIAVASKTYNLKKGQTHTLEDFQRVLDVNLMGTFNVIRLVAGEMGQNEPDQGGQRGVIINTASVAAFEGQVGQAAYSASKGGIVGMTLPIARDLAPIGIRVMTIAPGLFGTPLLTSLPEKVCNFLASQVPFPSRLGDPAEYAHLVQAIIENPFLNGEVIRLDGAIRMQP

Structure (SMILES)	tested on	assay	test system	conditions	how to read	endpoint	value
O=C(O)c1cc(-c2ccc(C3CCNCC3)cc2)c2ccc(-c3ccc(C(F)(F)F)cc3)cc2c1	CYSLTR1	radioligand binding		1 µM		IC50	560 nM
COc1ccc2cc([C@H](C)C(=O)O)ccc2c1	Toxoplasma gondii			concentration not given		activity	inactive
OC[C@H]1O[C@H](O[C@]2(CCl)O[C@H](CCl)[C@@H](O)[C@@H]2O)[C@H](O)[C@@H](O)[C@H]1Cl		sensory evaluation	human sensory panel, water	unit not given	baseline: sucrose	sweetness potency	600
Cc1cc(C)c(-n2ccn3nc(-c4cccnc4)cc23)cc1NC(=O)c1cc(C#N)cc(S(F)(F)(F)(F)F)c1	ABL1 non-phosphorylated	DiscoverX KINOMEscan				Kd	38 nM
COc1ccc2[nH]c([S+]([O-])Cc3ncc(C)c(OC)c3C)nc2c1 (stereo not drawn)	Toxoplasma gondii	parasite growth		concentration not given, published screen		activity class	inactive
C[C@@H](NC(=O)Nc1cc2[nH]ncc2c(CO)n1)c1ccccc1	MAPK1	biochemical				IC50	1.8 nM
O=C(C(c1ccccc1)n1cnc2[nH]ncc2c1=S)N1CCCCCC1 (stereo not drawn)	HSD17B10 (Homo sapiens, UniProt Q99714)	enzyme activity, inhibitor				IC50	92 nM
CN1CCN(C(=O)C(C)(C)c2ccc(C(=O)Nc3cn4cc(-c5ccncc5)ccc4n3)cc2)CC1	CLK3 (human)	enzyme activity				IC50	110 nM
COC(=O)[C@H](Cc1ccccc1)NC(=O)[C@@H](N)CC(=O)O		sensory evaluation	human sensory panel, water	unit not given	baseline: sucrose	sweetness potency	200
